Measured values gathered from unrelated publications.
Lines come from different studies, so protocols differ. Numbers after ± are the reported error.

Sequences of proteins named here, by UniProt entry; tags and fusion partners are left off.
UniProt Q9Y2R2, whole entry: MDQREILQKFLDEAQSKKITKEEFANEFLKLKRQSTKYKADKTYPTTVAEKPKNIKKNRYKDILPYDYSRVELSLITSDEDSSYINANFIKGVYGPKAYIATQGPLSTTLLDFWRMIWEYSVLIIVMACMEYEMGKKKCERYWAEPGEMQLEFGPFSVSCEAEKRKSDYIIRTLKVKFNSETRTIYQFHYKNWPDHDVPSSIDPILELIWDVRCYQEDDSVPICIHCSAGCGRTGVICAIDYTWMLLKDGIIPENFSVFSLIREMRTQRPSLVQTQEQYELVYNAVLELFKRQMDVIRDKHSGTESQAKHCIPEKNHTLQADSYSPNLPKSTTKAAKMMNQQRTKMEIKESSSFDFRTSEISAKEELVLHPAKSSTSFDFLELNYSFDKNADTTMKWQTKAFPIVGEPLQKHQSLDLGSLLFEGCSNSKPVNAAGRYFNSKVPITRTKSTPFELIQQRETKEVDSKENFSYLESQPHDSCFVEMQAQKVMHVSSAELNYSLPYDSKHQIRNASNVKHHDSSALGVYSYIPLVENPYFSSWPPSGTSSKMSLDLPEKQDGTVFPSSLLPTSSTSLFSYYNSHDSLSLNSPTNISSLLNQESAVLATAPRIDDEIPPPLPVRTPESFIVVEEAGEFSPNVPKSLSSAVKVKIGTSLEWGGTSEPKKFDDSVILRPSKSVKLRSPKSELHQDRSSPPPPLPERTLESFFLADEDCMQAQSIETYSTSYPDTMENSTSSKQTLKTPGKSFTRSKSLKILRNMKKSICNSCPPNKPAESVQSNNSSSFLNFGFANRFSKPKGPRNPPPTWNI
UniProt Q9ULD4, whole entry: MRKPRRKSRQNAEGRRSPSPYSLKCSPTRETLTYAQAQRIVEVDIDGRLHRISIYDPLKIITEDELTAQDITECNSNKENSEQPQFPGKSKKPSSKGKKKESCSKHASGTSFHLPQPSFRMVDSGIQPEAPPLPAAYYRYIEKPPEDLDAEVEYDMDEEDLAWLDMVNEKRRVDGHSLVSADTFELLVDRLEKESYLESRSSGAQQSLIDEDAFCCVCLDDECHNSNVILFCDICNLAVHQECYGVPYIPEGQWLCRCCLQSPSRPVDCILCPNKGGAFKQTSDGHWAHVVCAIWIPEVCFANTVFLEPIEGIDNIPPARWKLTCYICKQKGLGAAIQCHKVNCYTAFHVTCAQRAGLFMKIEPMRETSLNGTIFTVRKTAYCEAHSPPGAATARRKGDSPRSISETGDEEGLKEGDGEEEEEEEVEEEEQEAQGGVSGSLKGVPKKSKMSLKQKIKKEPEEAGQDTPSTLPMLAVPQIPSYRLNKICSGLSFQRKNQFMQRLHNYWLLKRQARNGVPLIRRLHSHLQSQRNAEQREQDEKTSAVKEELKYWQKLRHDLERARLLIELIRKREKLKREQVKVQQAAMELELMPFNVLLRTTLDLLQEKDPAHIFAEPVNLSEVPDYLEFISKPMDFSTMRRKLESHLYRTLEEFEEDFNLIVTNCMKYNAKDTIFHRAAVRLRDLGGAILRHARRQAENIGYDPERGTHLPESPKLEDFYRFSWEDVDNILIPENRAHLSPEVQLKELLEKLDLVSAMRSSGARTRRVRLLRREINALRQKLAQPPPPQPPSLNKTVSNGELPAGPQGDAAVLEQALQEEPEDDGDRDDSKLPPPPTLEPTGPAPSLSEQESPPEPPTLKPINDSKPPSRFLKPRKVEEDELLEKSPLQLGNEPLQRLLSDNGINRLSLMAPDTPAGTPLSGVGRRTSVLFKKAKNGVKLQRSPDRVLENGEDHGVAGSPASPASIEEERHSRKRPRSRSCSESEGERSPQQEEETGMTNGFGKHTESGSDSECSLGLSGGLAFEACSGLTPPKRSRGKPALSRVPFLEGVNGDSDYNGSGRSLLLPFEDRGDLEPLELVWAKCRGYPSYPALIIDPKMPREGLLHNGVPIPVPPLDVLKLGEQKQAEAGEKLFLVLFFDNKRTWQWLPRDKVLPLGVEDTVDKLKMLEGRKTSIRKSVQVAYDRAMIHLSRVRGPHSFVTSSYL
UniProt P10636, whole entry, looked up: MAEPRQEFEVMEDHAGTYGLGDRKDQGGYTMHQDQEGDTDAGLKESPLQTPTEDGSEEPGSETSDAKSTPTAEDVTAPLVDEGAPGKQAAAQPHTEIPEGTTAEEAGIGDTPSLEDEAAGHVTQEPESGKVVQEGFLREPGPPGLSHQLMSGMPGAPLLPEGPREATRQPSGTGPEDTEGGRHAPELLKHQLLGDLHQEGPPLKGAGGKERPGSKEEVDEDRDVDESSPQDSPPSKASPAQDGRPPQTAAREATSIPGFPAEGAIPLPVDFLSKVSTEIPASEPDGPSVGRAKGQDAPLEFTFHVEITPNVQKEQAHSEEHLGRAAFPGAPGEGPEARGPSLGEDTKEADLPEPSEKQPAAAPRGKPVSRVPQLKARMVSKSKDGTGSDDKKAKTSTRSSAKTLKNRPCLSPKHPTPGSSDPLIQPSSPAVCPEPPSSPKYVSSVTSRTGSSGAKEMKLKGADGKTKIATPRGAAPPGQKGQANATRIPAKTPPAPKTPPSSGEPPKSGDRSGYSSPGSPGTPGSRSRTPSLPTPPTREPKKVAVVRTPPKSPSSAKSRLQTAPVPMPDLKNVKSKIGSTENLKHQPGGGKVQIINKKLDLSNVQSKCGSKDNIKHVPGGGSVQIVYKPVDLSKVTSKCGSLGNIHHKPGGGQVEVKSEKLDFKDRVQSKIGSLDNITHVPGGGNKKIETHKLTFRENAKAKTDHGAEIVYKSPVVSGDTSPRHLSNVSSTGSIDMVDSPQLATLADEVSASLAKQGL

Compound	target or system	test	test system	conditions	scale	measurement	value
Clc1ccc2[nH]c(CNc3nc(N4CCNCC4)nc4c3ncn4-c3ccoc3)nc2c1	A-375	cell viability, MTT				EC50	0.002 µM
CCN1CCN(Cc2ccc(Nc3ncc4c(n3)N(C)c3c(F)cccc3C(=O)N4C)cc2C(F)(F)F)CC1	HCT-116	cell growth, CellTiter-Glo		96 h		EC50	0.449 µM
O=C(/C=C/c1nc2ccccc2[nH]1)c1c(-c2ccccc2)c2cc(Cl)ccc2[nH]c1=O	SK-MEL-28	cell viability, CellTiter-Blue		72 h		EC50	11.6 µM
CN1C(=O)c2ccccc2N(C)c2nc(Nc3ccc(N4CCC(O)CC4)cc3)ncc21	HCT-116	cell growth, CellTiter-Glo		96 h		EC50	0.0095 µM
Cc1c(O)cc2c(c1C)O[C@](C)(CCCC(C)C)CC2	PHLPP1	Western blot	LNCaP, non-raft membrane fractions	concentration not given, 24 h, serum-free medium	relative to: DMSO vehicle, PDK1-normalised	membrane PHLPP1 level	> 2.5 fold
COc1cc(CC(=O)NCC(NC(=O)C(CCCNC(=O)c2cccc(I)c2)NC(=O)C(Cc2ccc(C(F)(F)P(=O)(O)O)cc2)NC(=O)c2ccc(C)c(Br)c2)C(N)=O)ccc1O (stereo not drawn)	Tyrosine-protein phosphatase non-receptor type 22 (PTPN22, Homo sapiens, UniProt Q9Y2R2)	enzyme activity		10 µM		inhibition	no inhibition
COc1ccc2[nH]c(CNc3nc(N4CCN(C)CC4)nc4c3ncn4-c3ccoc3)nc2c1	A-375	cell viability, MTT				EC50	0.089 µM
O=C1CCC(N2C(=O)c3cccc(NCCOCCOCCOCCN4CCN(c5ccc(-c6ccc7c(c6)C(=O)N(C(C(=O)Nc6nccs6)c6ccccc6)C7)cn5)CC4)c3C2=O)C(=O)N1 (stereo not drawn)	Ba/F3 EGFR L858R/T790M	cell proliferation				EC50	0.096 µM
CC[C@@H]1C(=O)N(C)c2cnc(Nc3ccc(C(=O)NC4CCN(C)CC4)cc3OC)nc2N1C1CCCC1	Bromodomain and PHD finger-containing protein 3 (BRPF3, Homo sapiens, UniProt Q9ULD4)			10 µM		delta Tm	0.21 ± 0.31 °C
CCCC1C/C=C/CCCCC(=NOCC(=O)N2CCCCC2)Cc2c(Cl)c(O)cc(O)c2C(=O)O1 (stereo not drawn)	SK-BR-3	Her-2 depletion, item: Her-2		overnight		EC50	≤ 5 µM
Fc1cc(-c2ccc3c(n2)[nH]c2ccncc23)ccn1 [isotope labelled]	Microtubule-associated protein tau, paired helical filaments (MAPT, Homo sapiens, UniProt P10636)	radioligand binding	PHF tau brain homogenate	2.52 nM	higher = more binding	specific binding	3.03 a.u.
CC1CCCN(C(=O)CON=C2C=CCCC=CCCOC(=O)c3c(O)cc(O)cc3C2)C1 (stereo not drawn)	SK-BR-3	Her-2 depletion, item: Her-2		overnight		EC50	≤ 0.1 µM
Cc1cccc(NC(=O)c2nn(Cc3cnc[nH]3)c3c2CN(C(=O)c2ccc[nH]2)CC3)c1	human IDH1 R132H AML cells	granulocytic differentiation, flow cytometry		3 µM, 6 to 7 days	relative to: DMSO	fold change CD15+ cells	1.2 ± 0.3 fold
CCN1CCN(Cc2ccc(Nc3ncc4c(n3)N(C)c3c(C)cccc3C(=O)N4C)cc2C(F)(F)F)CC1	HeLa S3	cell growth, CellTiter-Glo		96 h		EC50	> 10 µM
CC1/C=C/CCCOC(=O)c2c(O)cc(O)cc2CC(=NOCC(=O)N2CCCCC2)/C=C/C1 (racemic)	SK-BR-3	Her-2 depletion, item: Her-2		overnight		EC50	≤ 5 µM

Excerpt of the above:
Compound	target or system	test	test system	conditions	scale	measurement	value
COc1ccc2[nH]c(CNc3nc(N4CCN(C)CC4)nc4c3ncn4-c3ccoc3)nc2c1	A-375	cell viability, MTT				EC50	0.089 µM
